Assay results gathered from unrelated publications.
Numbered parts are unrelated; each lists some results of a single study.

Block 1
Target: Sal-like protein 4, full length isoform A (SALL4, Homo sapiens, UniProt Q9UJQ4, residues 1-1053)
Chain of UniProt Q9UJQ4 (whole entry, looked up): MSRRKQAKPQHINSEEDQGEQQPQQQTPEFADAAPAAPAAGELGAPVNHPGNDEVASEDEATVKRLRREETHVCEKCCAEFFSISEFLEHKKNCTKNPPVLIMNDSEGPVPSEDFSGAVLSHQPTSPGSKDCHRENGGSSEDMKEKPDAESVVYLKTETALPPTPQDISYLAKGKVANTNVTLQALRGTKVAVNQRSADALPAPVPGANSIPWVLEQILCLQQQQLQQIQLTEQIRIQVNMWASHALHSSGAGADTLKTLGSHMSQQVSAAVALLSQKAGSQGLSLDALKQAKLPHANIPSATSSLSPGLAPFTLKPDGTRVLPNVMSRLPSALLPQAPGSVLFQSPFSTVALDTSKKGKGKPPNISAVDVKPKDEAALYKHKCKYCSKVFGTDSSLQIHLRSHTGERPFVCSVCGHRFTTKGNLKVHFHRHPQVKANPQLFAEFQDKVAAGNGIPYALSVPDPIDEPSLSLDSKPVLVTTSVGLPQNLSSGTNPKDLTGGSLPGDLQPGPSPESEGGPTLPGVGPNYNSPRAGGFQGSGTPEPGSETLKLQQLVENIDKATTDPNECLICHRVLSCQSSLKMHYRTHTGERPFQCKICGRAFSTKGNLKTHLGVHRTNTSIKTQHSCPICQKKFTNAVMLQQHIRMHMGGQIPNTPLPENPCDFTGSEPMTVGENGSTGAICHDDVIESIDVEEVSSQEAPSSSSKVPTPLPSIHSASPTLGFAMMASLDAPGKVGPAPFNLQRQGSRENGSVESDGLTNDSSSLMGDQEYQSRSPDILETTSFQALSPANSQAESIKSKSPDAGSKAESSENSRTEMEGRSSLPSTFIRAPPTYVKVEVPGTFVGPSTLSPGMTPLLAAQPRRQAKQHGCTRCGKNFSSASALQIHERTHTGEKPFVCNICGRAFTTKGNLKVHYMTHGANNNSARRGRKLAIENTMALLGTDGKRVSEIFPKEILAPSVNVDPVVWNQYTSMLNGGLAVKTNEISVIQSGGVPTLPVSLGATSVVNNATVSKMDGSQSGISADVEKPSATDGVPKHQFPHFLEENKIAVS
Method: universal PBM
Molecule type: double-stranded DNA, one strand shown
Sample: in vitro
Concentration: 600 nM
Setting: 8-mer, flanks averaged, mean of replicates
Direction: higher = stronger binding
The E-score of `CCTCCCGC` is reported as -0.326.
For `GACTCTGC`, the E-score was -0.149.
For `CCACGACC`, the E-score was -0.278.
For `AGCCTTTA`, the E-score was 0.139.
`GCAAGGCC` has an E-score of -0.273.
The E-score of `AAGTAATT` is reported as 0.363.

Block 2
Target: Centromere-binding protein 1, full length, His-tagged (CBF1, Saccharomyces cerevisiae, UniProt P17106, residues 1-351)
Chain of UniProt P17106 (whole entry, looked up): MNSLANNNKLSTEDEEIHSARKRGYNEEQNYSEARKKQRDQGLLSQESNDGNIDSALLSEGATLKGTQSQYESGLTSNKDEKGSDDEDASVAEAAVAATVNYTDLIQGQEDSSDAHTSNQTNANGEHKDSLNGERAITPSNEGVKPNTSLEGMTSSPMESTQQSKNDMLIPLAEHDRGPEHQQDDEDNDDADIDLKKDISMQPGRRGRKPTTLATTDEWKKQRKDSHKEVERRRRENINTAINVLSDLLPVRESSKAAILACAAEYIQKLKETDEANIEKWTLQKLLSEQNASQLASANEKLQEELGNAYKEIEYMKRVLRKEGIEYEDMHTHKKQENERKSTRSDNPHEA
Method: competition protein-binding microarray
Molecule type: double-stranded DNA, one strand shown
Sample: in vitro
Concentration: 2 µM
Setting: whole 60-bp probe, lowest competitor level
With: Pho4 competitor, 0.05 µM
Direction: higher = stronger binding
All sequences stand within: … GTCTTGATTCGCTTGACGCTGCTG
`TCATTATTGAAAGTGAACGTGATTGTGAACCGCTTG` gave a fluorescence intensity of 292 a.u.
For `AGAATTTGTCAACAACATGTGGGCTTGGGATAAGCC`, the fluorescence intensity was 88.5 a.u.
`CATACCCAACCTTGATGCGTGGGTGAAGATATTTGT` gave a fluorescence intensity of 79.6 a.u.
For `AAAGCGGTAATTTTTCACGTGAAGTCAAATATCTAT`, the fluorescence intensity was 1230 a.u.
`GCCGTTTTGCTCCGGGTCGTGCCGACGTAAATCCAT` has a fluorescence intensity of 63.9 a.u.
For `AAATTACTAAGTTGTCAAGTGGGTGACGCCGTATGA`, the fluorescence intensity was 72.3 a.u.

Block 3
Target: Histone acetyltransferase KAT6A, winged helix 1, GST fusion (KAT6A, Homo sapiens, UniProt Q92794, residues 1-85)
Method: protein binding microarray
Molecule type: double-stranded DNA, one strand shown
Sample: in vitro
Concentration: not given
Setting: 8-mer, flanks averaged, mean of 2 arrays, mostly near background
Relative to: not given
Direction: higher = stronger binding
Residues (chain): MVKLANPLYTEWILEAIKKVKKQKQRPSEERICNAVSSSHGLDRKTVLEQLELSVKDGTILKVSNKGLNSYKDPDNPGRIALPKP
For `GCGATAAC`, the E-score was 0.0677.
The E-score of `GCAAGAGC` is reported as -0.00351.
`AGCGAGAG` gave an E-score of -0.00424.
For `CGCAGACA`, the E-score was 0.069.
`ATCGAAAC` gave an E-score of 0.0653.
For `ATATAAAA`, the E-score was -0.217.
`CTGCGCAC` gave an E-score of 0.219.
The E-score of `CCGACTCA` is reported as 0.0596.

Further values, each from its own experiment
The fold induction of `PhoQ, residues 284 288 289 292 302 303 AANNSF` is reported as 10.6 (PhoP, residues 12 14 15 18 19 YHFSH (Escherichia coli, UniProt P23836); Sort-seq, measured: YFP reporter; E. coli; PhoQ-PhoP variant library, with: 10 µM Mg2+; relative to: high Mg2+ state, higher = stronger signaling).

For quick reference, copied from above (block 1):
The E-score of `CCTCCCGC` is reported as -0.326.
The E-score of `AAGTAATT` is reported as 0.363.
For `AGCCTTTA`, the E-score was 0.139.
